# Assay results of several laboratories.
# Compare with care: the assays were run in different laboratories. ± marks the error that the study gave.
Compound,cell line,assay,conditions,IC50
CC[C@H](C)[C@H](N)C(=O)N[C@H](C(=O)N[C@@H](CCCNC(=N)N)C(=O)N[C@@H](Cc1c[nH]c2ccccc12)C(=O)N[C@@H](CO)C(=O)N[C@@H](CCCCN)C(=O)N[C@@H](CCCCN)C(=O)N[C@H](C(=O)N1CCC[C@H]1C(=O)N[C@@H](CS)C(=O)N[C@H](C(=O)N[C@@H](CO)C(=O)O)C(C)C)C(C)C)C(C)C,SUP-T1,"ERK phosphorylation, inhibitor, phosphoflow cytometry","with: CXCL12 100 ng/mL, 2 min",15.2 ± 3.97 µM
COC(=O)CC(O)(CC(=O)OC)C(=O)O,Hepa-1c1c7,cell growth or viability,,> 100 µM
Cn1c(=O)c(/C=C/c2ccccc2Br)nc2ccccc21,NCI-H460,"cell growth or viability, MTT",72 h,> 50 µM
O=C(Cn1cc(COc2ccc(/C=N/NC(=O)c3ccncc3)cc2)nn1)Nc1nc2ccccc2s1,T47D,"cell growth or viability, MTT",48 h,30 µM
CC(=O)C1=CC[C@H]2[C@]3(C)CC[C@H]4C(C)(C)CCC[C@]4(CO)[C@H]3CC(=O)[C@]2(C)[C@H]1C=O,T47D,luciferase reporter gene,"16 h, hypoxia 1% O2, with: pGL3-Control construct",> 10 µM
CCC[C@H](NC(=O)c1ccc(CCCc2cc3c(=O)[nH]c(N)nc3[nH]2)s1)C(=O)O,CHO RT16 (human FRα),cell growth,with: folic acid 200 nM,> 1 µM
COCc1c(C(C)C)nc(C(C)C)c(/C=C/[C@@H](O)C[C@@H](O)CC(=O)O)c1-c1ccc(F)cc1,T47D,"cell growth, SRB",72 h,16.2 µM
C=CC[n+]1ccc(-c2c3nc(c(-c4cc[n+](CC=C)cc4)c4ccc([nH]4)c(-c4ccc(OCCCCCCCCCCCCCCCC)c(OC)c4)c4nc(c(-c5cc[n+](CC=C)cc5)c5ccc2[nH]5)C=C4)C=C3)cc1,KCL-22,"cell viability, vital dye exclusion","48 h, light, 30 mW/cm2, 25 min",0.7 ± 0.1 µM
CCN(CC)CCOc1ccc(-c2nc3ccccc3[nH]2)cc1,Z-138,"cell growth or viability, MTS",72 h,46.2 µM
OC[C@H]1O[C@@H](Oc2cc3c(O)cc(O)cc3[o+]c2-c2cc(O)c(O)c(O)c2)[C@H](O)[C@@H](O)[C@@H]1O,Hepa-1c1c7,cell growth or viability,,> 100 µM
O=c1[nH]cc(F)c(=O)[nH]1,ReNcell VM,"cell viability, live/dead 3D alginate microarray",24 h exposure plus 48 h,8.4 µM
O=C(COc1ccc(-c2nc3ccccc3[nH]2)cc1F)N1CCOCC1,Z-138,"cell growth or viability, MTS",72 h,> 100 µM
c1ccc(-c2ccccn2)nc1,"A549, B16-F10, Caco-2, HT-29",cell viability,dark,> 100 µM
CS(=O)(=O)CCNCc1ccc(-c2ccc3ncnc(Nc4ccc(OCc5cccc(F)c5)c(Cl)c4)c3c2)o1,NCI-N87,"cell growth, inhibitor",standard medium,0.0352 ± 0.006 µM
c1ccc2[nH]c(-c3ccc(OCCN4CCOCC4)cc3)nc2c1,Z-138,"cell growth or viability, MTS",72 h,48.3 µM
CC(=O)C(=NNc1ccc(S(=O)(=O)Nc2ncccn2)cc1)C(C)=O,A-431,"cell growth or viability, MTT",48 h,17.2 µM
CC1COc2c(N3CCN(C)CC3)c(F)cc3c(=O)c(C(=O)[O-])cn1c23.Cc1ccc(C(C)C)cc1.[Cl-].[Ru+2] (stereo not shown),CH1,"cell growth or viability, MTT",96 h,18 µM
CS(=O)(=O)c1ccc2nc(NC(=O)Cn3cc(COc4ccc(/C=N/NC(=O)c5ccccc5)cc4)nn3)sc2c1,T47D,"cell growth or viability, MTT",48 h,19 µM
COc1c2ccoc2c(OCC=C(C)C)c2oc(=O)ccc12,COLO 320 multidrug-resistant,"cell growth, MTT",72 h,43.7 ± 1.78 µM
O=c1cc(-c2ccc(O)cc2)oc2cc(O)cc(O)c12,Jurkat,"cell growth or viability, ATP luminescence",24 h,143 µM
Cn1c(=O)c(/C=C/c2ccc(F)cc2)nc2ccccc21,B16-F10,"cell growth or viability, MTT",72 h,0.03 µM
Cc1cc(C)n(-c2nc(NN=Cc3c[nH]c4ccccc34)nc(Nc3ccc(Br)cc3)n2)n1,A549 and SK-BR-3,cell growth,120 h,6.1 to 10.8 µM
C=C1C[C@H](O)[C@H](Br)C(C)(C)[C@@]12CCC(C)=C(Cl)C2,wild-type and Atf4 knockout MEFs,"viability, CellTiter-Glo",72 h,4.04 µM
C=CC(=O)N1CCC[C@@H](n2nc(-c3ccc(Oc4ccccc4)cc3)c3c(N)ncnc32)C1,OCI-Ly10,"cell growth or viability, CCK-8",72 h,0.467 µM
COc1cc2c(cc1O)[C@@H]1[C@H](O)[C@@H](O)C=C3CCN(C2)[C@H]31,SK-MEL-28,"cell growth or viability, MTT",72 h,15.5 µM
O=C1CNC(=O)c2coc(n2)-c2coc(n2)-c2cccc(c2)-c2cccc(c2)-c2nc(co2)-c2nc(co2)CN1,RPMI 8402,"cytotoxicity, MTT","4 days, 10% fetal bovine serum",≤ 3.5 µM
CC[C@]1(O)C[C@H]2CN(CCc3c([nH]c4ccccc34)[C@@](C(=O)OC)(c3cc4c(cc3OC)N(C=O)[C@H]3[C@@](O)(C(=O)OC)[C@H](OC(C)=O)[C@]5(CC)C=CCN6CC[C@]43[C@@H]65)C2)C1,HCT-15/ADM2,"cell growth, XTT",72 h,2.02 µg/mL
CN1CCN(c2nc3ccccc3nc2/C=C/c2ccccc2F)CC1,NCI-H460,"cell growth or viability, MTT",72 h,11.6 µM
CS(=O)(=O)c1ccc2nc(NC(=O)Cn3cc(COc4ccc(/C=N\Nc5ccc([N+](=O)[O-])cc5[N+](=O)[O-])cc4)nn3)sc2c1,T47D,"cell growth or viability, MTT",48 h,84 µM
NCCN.O=C1[O][Pt]2([O]C(=O)C13CCC3)[O]C(=O)C1(CCC1)C(=O)[O]2,CH1,"cell viability, MTT",96 h,170 ± 54 µM
O=C(COc1ccc(-c2nc3ccc(Cl)cc3[nH]2)cc1F)N1CCOCC1,Z-138,"cell proliferation, MTS",72 h,64.8 µM
O=c1[nH]c2ccccc2nc1/C=C/c1ccccn1,NCI-H460,"cell growth or viability, MTT",72 h,0.46 µM
CC(C)(C)C(=O)Oc1ccc(S(=O)(=O)Nc2ccccc2C(=O)NCC(=O)O)cc1,BEAS-2B,"cell growth or viability, MTT",24 h,0.861 µM
CNC(=O)c1cc(Oc2ccc(NC(=O)Nc3ccc(C(F)(F)C(F)(F)F)cc3)c(F)c2)ccn1,mouse MYC-CTNNB1 tumour organoids,viability,,1 µM
CCC(CC)CSc1nc2c([nH]1)c(=S)n(C)c(=O)n2C,T47D,"alkaline phosphatase activity, antagonist","24 h, with: progesterone 2.5 nM",1.2 µM
O=c1c(/C=C/c2ccccn2)nc2ccccc2n1Cc1ccccc1,NCI-H460,"cell growth or viability, MTT",72 h,26.1 µM
CC(C)OC(=O)C(n1cccn1)n1cccn1,"LoVo OXP, oxaliplatin-resistant",MTT,72 h,> 50 µM
Cn1c(=O)c(/C=C/c2ccccc2)nc2ccccc21,NCI-H460,"cell growth or viability, MTT",72 h,4.14 µM
CC[C@H](Nc1ncnc2[nH]cnc12)c1nc2cccc(F)c2c(=O)n1-c1ccccc1,B-cell lymphoma cell lines,"cell proliferation, CellTiter-Glo",72 h,> 20 µM
C#Cc1cccc(Nc2ncnc3cc(OCCOC)c(OCCOC)cc23)c1,A-431,"cell growth or viability, MTT",48 h,11.1 µM
CC1(C)Cc2c(-c3ccccc3)c(-c3ccc(Cl)cc3)c(CC(=O)O)n2C1,HCA-7 overexpressing Has2,"cell proliferation, MTS",,186 ± 11.9 µM
Fc1ccccc1/C=C/c1nc2ccccc2nc1Cl,B16-F10,"cell growth or viability, MTT",72 h,17.9 µM
Cc1cc(O)cc2c1OC(C)(CCCC(C)CCCC(C)CCCC(C)C(=O)O)CC2 (stereo not shown),differentiated HL-60,LTB4 formation,"30 min pre-incubation, with: thapsigargin",7.5 µM
CCN(CC)CCOc1ccc(-c2nc3ccc(F)cc3[nH]2)cc1,Z-138,"cell growth or viability, MTS",72 h,31.1 µM
CC(C)c1cccc(C(C)C)c1-n1ccn(-c2c(C(C)C)cccc2C(C)C)[c]1=[Cu][Se]c1ccccc1,Vero E6,"cytotoxicity, crystal violet staining",96 h,1.1 ± 0.2 µM
CS(=O)(=O)CCNCc1ccc(-c2ccc3ncnc(Nc4ccc(OCc5cccc(F)c5)c(Cl)c4)c3c2)o1,A-431,"cell growth or viability, ATP luminescence",72 h,0.968 µM
COc1cccc2c1C(=O)c1c(O)c3c(c(O)c1C2=O)C[C@@](O)(C(=O)CO)C[C@@H]3O[C@H]1C[C@H](N)[C@H](O)[C@H](C)O1,BEAS-2B,"cell growth or viability, MTT",72 h,0.22 µM
C=C1C(=O)O[C@H]2[C@H]1CCC(C)=C1CC[C@@](C)(O)[C@@H]12,NCI/ADR-RES,"cell growth, inhibitor, Alamar blue",,22 ± 5.3 µM
O=C1c2c(O)ccc(O)c2C(=O)c2c(NCCNCCO)ccc(NCCNCCO)c21,HCT-15/ADM2,"cell growth, XTT",72 h,0.47 µg/mL
Cc1cc(C)c(N2CCN(c3c(C)cc(C)cc3C)[C]2=[Au][Se]c2ccccc2)c(C)c1,Vero E6,"cytotoxicity, crystal violet staining",96 h,6 ± 0.3 µM
CCn1c(-c2cccnc2[C@H](C)OC)c2c3cc(ccc31)N1CCO[C@@H](C[C@H](NC(=O)[C@H](C(C)C)N(C)C(=O)C3(F)CCN(C(=O)C#CC(C)(C)N(C)C)CC3)C(=O)N3CCC[C@H](N3)C(=O)OCC(C)(C)C2)C1,KRAS G12C mutant cell lines,"cell growth, 3D CellTiter-Glo",120 h,0.00011 µM
O=c1[nH]c2ccccc2nc1/C=C/c1cccs1,B16-F10,"cell growth or viability, MTT",72 h,12.5 µM

# Repeated from above:
Compound,cell line,assay,conditions,IC50
COc1cc2c(cc1O)[C@@H]1[C@H](O)[C@@H](O)C=C3CCN(C2)[C@H]31,SK-MEL-28,"cell growth or viability, MTT",72 h,15.5 µM
O=C1CNC(=O)c2coc(n2)-c2coc(n2)-c2cccc(c2)-c2cccc(c2)-c2nc(co2)-c2nc(co2)CN1,RPMI 8402,"cytotoxicity, MTT","4 days, 10% fetal bovine serum",≤ 3.5 µM
CC[C@]1(O)C[C@H]2CN(CCc3c([nH]c4ccccc34)[C@@](C(=O)OC)(c3cc4c(cc3OC)N(C=O)[C@H]3[C@@](O)(C(=O)OC)[C@H](OC(C)=O)[C@]5(CC)C=CCN6CC[C@]43[C@@H]65)C2)C1,HCT-15/ADM2,"cell growth, XTT",72 h,2.02 µg/mL
CN1CCN(c2nc3ccccc3nc2/C=C/c2ccccc2F)CC1,NCI-H460,"cell growth or viability, MTT",72 h,11.6 µM
CS(=O)(=O)c1ccc2nc(NC(=O)Cn3cc(COc4ccc(/C=N\Nc5ccc([N+](=O)[O-])cc5[N+](=O)[O-])cc4)nn3)sc2c1,T47D,"cell growth or viability, MTT",48 h,84 µM
NCCN.O=C1[O][Pt]2([O]C(=O)C13CCC3)[O]C(=O)C1(CCC1)C(=O)[O]2,CH1,"cell viability, MTT",96 h,170 ± 54 µM
